Experimental data pooled from the literature.
Protocols differ between the studies behind these lines. ± gives the spread as reported.
TRPM8: Transient receptor potential cation channel subfamily M member 8 (TRPM8, Homo sapiens, UniProt Q7Z2W7)
Sequence of UniProt Q7Z2W7 (whole entry, looked up): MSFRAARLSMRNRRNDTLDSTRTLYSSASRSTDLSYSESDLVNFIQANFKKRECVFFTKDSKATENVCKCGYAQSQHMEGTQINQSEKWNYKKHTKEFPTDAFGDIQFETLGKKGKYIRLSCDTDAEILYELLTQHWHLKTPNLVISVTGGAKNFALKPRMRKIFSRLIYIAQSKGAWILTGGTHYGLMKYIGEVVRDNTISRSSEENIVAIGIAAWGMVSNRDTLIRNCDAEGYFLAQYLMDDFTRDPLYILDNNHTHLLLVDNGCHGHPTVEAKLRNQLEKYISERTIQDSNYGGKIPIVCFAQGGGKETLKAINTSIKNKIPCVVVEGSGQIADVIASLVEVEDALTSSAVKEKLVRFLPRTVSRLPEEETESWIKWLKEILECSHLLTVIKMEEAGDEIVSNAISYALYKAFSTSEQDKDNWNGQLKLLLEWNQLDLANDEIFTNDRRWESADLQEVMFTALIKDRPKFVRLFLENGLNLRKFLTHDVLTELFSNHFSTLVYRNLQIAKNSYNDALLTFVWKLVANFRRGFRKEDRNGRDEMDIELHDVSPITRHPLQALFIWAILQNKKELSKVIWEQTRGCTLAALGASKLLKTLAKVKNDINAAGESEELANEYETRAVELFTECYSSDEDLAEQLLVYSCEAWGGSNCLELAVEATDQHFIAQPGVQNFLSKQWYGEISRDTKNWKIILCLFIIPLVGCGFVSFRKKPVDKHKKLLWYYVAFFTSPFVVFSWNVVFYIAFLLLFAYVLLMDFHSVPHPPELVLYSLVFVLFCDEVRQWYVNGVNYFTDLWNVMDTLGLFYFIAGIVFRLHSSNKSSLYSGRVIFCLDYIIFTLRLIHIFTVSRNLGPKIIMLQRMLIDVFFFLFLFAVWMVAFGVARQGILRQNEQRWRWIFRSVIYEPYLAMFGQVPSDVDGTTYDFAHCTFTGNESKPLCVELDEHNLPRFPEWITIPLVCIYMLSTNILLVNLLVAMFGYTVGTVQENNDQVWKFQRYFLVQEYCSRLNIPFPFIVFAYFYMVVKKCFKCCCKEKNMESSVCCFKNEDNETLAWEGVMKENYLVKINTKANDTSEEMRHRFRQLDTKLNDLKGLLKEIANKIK
spsB: Signal peptidase IB (spsB, Staphylococcus aureus, UniProt Q5HHB9)
Sequence of UniProt Q5HHB9 (whole entry, looked up): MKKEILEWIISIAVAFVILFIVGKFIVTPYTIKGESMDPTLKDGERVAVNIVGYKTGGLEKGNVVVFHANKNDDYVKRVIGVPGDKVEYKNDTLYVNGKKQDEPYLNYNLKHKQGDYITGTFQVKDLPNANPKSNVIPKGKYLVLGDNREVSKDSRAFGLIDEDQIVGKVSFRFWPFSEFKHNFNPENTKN
Sequence of UniProt P29376 (whole entry, looked up): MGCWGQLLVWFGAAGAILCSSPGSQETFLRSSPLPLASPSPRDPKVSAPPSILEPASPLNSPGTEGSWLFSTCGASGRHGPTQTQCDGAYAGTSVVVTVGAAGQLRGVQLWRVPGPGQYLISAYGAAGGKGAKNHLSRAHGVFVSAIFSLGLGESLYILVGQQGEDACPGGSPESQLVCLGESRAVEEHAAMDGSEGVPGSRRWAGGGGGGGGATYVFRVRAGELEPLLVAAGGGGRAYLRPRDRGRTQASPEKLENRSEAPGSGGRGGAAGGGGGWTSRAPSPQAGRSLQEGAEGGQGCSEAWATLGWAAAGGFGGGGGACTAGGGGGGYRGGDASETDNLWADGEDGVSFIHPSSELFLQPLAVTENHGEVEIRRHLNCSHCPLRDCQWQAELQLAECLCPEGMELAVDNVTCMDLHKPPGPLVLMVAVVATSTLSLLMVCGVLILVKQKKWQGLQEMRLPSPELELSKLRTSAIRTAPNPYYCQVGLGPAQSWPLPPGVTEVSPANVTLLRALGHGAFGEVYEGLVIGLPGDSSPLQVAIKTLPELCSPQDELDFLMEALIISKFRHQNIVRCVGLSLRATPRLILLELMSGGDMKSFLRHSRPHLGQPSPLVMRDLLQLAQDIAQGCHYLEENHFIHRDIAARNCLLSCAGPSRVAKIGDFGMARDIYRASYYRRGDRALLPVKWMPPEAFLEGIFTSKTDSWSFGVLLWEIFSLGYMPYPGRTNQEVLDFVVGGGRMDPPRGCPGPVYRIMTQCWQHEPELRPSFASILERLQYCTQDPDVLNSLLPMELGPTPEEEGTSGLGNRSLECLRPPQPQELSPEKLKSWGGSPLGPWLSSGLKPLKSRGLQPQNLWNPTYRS
Sequence of UniProt Q9H1R3 (whole entry, looked up): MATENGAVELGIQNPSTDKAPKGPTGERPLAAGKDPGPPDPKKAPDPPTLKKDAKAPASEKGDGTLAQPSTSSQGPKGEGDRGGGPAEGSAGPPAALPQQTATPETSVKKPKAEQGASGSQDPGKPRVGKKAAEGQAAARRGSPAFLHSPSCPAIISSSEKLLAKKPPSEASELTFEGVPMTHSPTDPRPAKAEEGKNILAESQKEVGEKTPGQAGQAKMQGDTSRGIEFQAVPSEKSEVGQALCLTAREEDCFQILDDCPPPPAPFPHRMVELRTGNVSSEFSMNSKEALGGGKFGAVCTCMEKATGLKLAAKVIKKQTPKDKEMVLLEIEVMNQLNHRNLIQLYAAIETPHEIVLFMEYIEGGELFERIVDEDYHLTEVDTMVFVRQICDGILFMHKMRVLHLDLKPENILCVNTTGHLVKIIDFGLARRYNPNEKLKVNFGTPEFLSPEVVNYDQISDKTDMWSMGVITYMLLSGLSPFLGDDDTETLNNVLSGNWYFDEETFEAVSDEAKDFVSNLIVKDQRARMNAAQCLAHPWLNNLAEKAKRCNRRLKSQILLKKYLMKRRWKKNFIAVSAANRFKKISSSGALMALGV
Sequence of UniProt Q9H4B4 (whole entry, looked up): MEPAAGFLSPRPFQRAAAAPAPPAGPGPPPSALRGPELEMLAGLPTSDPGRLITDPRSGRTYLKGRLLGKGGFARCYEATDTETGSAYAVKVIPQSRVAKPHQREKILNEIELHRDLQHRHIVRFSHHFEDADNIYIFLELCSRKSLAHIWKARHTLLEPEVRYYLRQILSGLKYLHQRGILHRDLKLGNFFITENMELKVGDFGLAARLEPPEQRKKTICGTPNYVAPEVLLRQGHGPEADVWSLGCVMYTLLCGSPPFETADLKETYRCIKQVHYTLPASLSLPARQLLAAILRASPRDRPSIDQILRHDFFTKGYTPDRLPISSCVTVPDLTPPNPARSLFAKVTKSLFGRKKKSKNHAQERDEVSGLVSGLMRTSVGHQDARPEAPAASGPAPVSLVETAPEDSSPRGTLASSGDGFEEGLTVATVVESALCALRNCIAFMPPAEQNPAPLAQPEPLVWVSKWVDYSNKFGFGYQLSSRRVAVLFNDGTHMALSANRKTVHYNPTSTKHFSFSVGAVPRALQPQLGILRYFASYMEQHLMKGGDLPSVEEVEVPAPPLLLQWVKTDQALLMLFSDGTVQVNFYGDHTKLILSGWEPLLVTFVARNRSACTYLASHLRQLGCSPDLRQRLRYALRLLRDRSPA
Sequence of UniProt Q00532 (whole entry, looked up): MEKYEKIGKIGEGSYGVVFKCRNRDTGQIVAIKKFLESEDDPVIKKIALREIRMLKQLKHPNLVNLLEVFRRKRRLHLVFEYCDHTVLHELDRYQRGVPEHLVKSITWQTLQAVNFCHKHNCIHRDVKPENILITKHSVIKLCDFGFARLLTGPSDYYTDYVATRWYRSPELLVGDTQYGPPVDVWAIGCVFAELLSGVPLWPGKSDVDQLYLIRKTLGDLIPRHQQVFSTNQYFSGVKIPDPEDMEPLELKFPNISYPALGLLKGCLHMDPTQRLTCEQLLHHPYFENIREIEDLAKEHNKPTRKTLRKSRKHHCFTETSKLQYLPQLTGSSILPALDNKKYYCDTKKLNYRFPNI

The remaining activity of N#Cc1cnc2cnc(NCc3cccnc3)cc2c1Nc1ccc(F)c(Cl)c1 is reported as 94.5 ± 7.99% (TRPM8; antagonist; HEK293; 5 µM; relative to: control).
The remaining activity of COc1cc(NC(=O)Nc2ccc(Cl)c(C(F)(F)F)c2)cc(OC)c1OC is reported as 118% (spsB; peptidase activity, activator, FRET peptide cleavage; Staphylococcus aureus, membranes; 10 µM; relative to: DMSO).
The remaining activity of O=C(O)c1ccc2c3c1cccc3c(=O)n1c3ccccc3nc21 is reported as 108 ± 6.09% (TRPM8; antagonist; HEK293; 5 µM; relative to: control).
The remaining activity of O=C(O)c1ccc(Nc2ncc3c(n2)-c2ccc(Cl)cc2C(c2c(F)cccc2F)=NC3)cc1 is reported as 40% (Arg(h); kinase activity; 1 µM).
The remaining activity of CO[C@H]1[C@@H](OC)C[C@H](C)[C@@H](OC)C2=CC(=O)C=C(NC(=O)/C(C)=C/C=C\[C@H](OC)[C@@H](OC(N)=O)/C(C)=C/[C@@H]1C)C2=O is reported as 86.4 ± 10.4% (TRPM8; antagonist; HEK293; 5 µM).
With COc1cc(Nc2ncc3c(n2)-c2ccc(Cl)cc2C(c2c(F)cccc2OC)=NC3)ccc1C(=O)O the remaining activity was 108% (MST1R; kinase activity; 1 µM).
CC(C)c1nn(-c2c(Cl)cccc2Cl)c2nc(Cc3ccc(OCCO)cc3)[nH]c(=O)c12 gave a remaining activity of 106 ± 5.47% (TRPM8; antagonist; HEK293; 5 µM; relative to: control).
For O=C(NC1CCC1)c1ccc2nc(-c3cccc(NS(=O)(=O)NCCN4CCCCC4)c3)cn2c1, the remaining activity was 54% (FLT3 (Homo sapiens, UniProt P36888, R834Q); enzyme activity; 10 µM).
For CN(C(=O)Nc1ccc(Cl)c(C(F)(F)F)c1)c1ccc2c(c1)OC(F)(F)O2, the remaining activity was 139% (spsB; peptidase activity, activator, FRET peptide cleavage; Staphylococcus aureus, membranes; 50 µM; relative to: DMSO).
Cc1cc(Nc2cc(N3CCN(C)CC3)nc(Sc3ccc(NC(=O)C4CC4)cc3)n2)[nH]n1 has a remaining activity of 100% (WNK2 (Homo sapiens, UniProt Q9Y3S1); kinase activity, KinaseProfiler; 0.03 µM, species human; relative to: control).
O=C(Nc1cccc(NC(=O)Nc2ccc(Cl)c(C(F)(F)F)c2)c1)Nc1ccc(Cl)c(C(F)(F)F)c1 has a remaining activity of 153% (spsB; peptidase activity, activator, FRET peptide cleavage; Staphylococcus aureus, membranes; 10 µM; relative to: DMSO).
O=C(Nc1ccc(Cl)cc1)c1ccccc1NCc1ccncc1 has a remaining activity of 103 ± 2.44% (TRPM8; antagonist; HEK293; 5 µM; relative to: control).
With O=C(Cc1ccc(Cl)c(C(F)(F)F)c1)Nc1ccc2c(c1)OC(F)(F)O2 the remaining activity was 108% (spsB; peptidase activity, activator, FRET peptide cleavage; Staphylococcus aureus, membranes; 10 µM; relative to: DMSO).
For O=C1NC(=O)/C(=C/c2ccc(-c3ccc(F)cc3O)o2)S1, the remaining activity was 89% (PAK2 (Homo sapiens, UniProt Q13177); enzyme activity; 10 µM).
The remaining activity of COc1cc(-c2cncc3c2CN(C)Cc2cc(N4CCNCC4)ccc2-3)cc(OC)c1OC is reported as 107% (LTK (Homo sapiens, UniProt P29376); kinase activity; 1 µM, human enzyme, added: ATP 10 µM; relative to: DMSO control).
CNC(=O)c1cc(Oc2ccc(N(C)C(=O)Nc3ccc(Cl)c(C(F)(F)F)c3)cc2)ccn1 has a remaining activity of 117% (spsB; peptidase activity, activator, FRET peptide cleavage; Staphylococcus aureus, membranes; 50 µM; relative to: DMSO).
COc1cc(F)ccc1-c1ncnc(Nc2cccc(C[S@](C)(=N)=O)c2)n1 has a remaining activity of 87% (PLK3 (Homo sapiens, UniProt Q9H4B4); kinase activity; 10 µM, added: 10 µM ATP).
For COc1ccc(F)cc1C(=O)NCc1ccc(-c2nn([C@@H](C)C(F)(F)F)c(N)c2C(N)=O)cc1, the remaining activity was 96.9 ± 1.5% (ABL2 (Homo sapiens, UniProt P42684); 1000 nM, added: ATP at Km).
C=CC(=O)N1CCC[C@@H](n2nc(-c3ccc(Oc4ccccc4)cc3)c3c(N)ncnc32)C1 gave a remaining activity of 13.9% (CDKL1 (Homo sapiens, UniProt Q00532); 1 µM).
With CNc1ncc2c(/C=C/C(=O)N3CCC(OC)CC3)nn(Cc3cccc(C(F)(F)F)c3)c2n1 the remaining activity was 95% (MYLK2 (Homo sapiens, UniProt Q9H1R3); kinase activity, inhibitor; 1 µM; relative to: untreated control).
With CCN(CC)CCCCN1c2ccccc2Oc2ccc(Cl)cc21 the remaining activity was 92.8 ± 14.6% (TRPM8; antagonist; HEK293; 5 µM; relative to: control).
With O=C(Nc1ccc2c(c1)OCCO2)Nc1ccc(Cl)c(C(F)(F)F)c1 the remaining activity was 128% (spsB; peptidase activity, activator, FRET peptide cleavage; Staphylococcus aureus, membranes; 50 µM; relative to: DMSO).
The remaining activity of CSc1nc(-c2ccnc(N[C@@H](C)c3ccccc3)c2)c(-c2ccc(F)cc2)[nH]1 (racemic) is reported as 85 ± 7.68% (TRPM8; antagonist; HEK293; 5 µM; relative to: control).
O=C(Nc1ccc(Cl)c(C(F)(F)F)c1)N1CCC(F)(F)CC1 gave a remaining activity of 119% (spsB; peptidase activity, activator, FRET peptide cleavage; Staphylococcus aureus, membranes; 100 µM; relative to: DMSO).
For O=C1c2ccccc2-c2n[nH]c3cccc1c23, the remaining activity was 86.9 ± 15% (TRPM8; antagonist; HEK293; 5 µM; relative to: control).
The remaining activity of O=C(Nc1ccc(Cl)c(C(F)(F)F)c1)Nc1ccc2ccccc2c1 is reported as 126% (spsB; peptidase activity, activator, FRET peptide cleavage; Staphylococcus aureus, membranes; 10 µM; relative to: DMSO).

A few entries again:
For COc1ccc(F)cc1C(=O)NCc1ccc(-c2nn([C@@H](C)C(F)(F)F)c(N)c2C(N)=O)cc1, the remaining activity was 96.9 ± 1.5% (ABL2 (Homo sapiens, UniProt P42684); 1000 nM, added: ATP at Km).
C=CC(=O)N1CCC[C@@H](n2nc(-c3ccc(Oc4ccccc4)cc3)c3c(N)ncnc32)C1 gave a remaining activity of 13.9% (CDKL1 (Homo sapiens, UniProt Q00532); 1 µM).
